Assay results from different studies.
Each line is one published result; not all experiments were run side by side. Values joined by “and” are separate records of one study, mostly repeats; a detail may differ. ± marks the error that the study gave.
HLA class I histocompatibility antigen, A alpha chain allele A*02:01: HLA class I histocompatibility antigen, A alpha chain, allele A*02:01 (Homo sapiens, UniProt P04439)
Chain of UniProt P63096 (whole entry, looked up): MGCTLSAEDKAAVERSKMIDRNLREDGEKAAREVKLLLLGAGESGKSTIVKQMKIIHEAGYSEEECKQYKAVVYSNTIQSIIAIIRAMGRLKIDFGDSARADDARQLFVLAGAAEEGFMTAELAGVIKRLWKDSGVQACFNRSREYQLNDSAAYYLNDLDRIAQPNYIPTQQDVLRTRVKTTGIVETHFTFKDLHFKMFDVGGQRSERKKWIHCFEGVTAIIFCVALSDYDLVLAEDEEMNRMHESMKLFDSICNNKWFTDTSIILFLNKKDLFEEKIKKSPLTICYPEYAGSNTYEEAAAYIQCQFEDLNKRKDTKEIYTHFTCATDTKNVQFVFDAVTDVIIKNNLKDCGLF
Chain of UniProt P35372 (whole entry, looked up): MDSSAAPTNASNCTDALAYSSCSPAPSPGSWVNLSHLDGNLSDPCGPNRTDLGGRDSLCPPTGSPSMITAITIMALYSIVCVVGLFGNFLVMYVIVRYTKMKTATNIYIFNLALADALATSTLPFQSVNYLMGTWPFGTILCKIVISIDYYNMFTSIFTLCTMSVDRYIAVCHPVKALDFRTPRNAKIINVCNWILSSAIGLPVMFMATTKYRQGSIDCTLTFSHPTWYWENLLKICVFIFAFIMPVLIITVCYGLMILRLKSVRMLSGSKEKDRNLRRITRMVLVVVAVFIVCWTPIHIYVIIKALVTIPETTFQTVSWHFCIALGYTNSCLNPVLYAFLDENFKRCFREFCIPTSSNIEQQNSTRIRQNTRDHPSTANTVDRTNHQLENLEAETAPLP
Chain of UniProt P42866 (whole entry, looked up): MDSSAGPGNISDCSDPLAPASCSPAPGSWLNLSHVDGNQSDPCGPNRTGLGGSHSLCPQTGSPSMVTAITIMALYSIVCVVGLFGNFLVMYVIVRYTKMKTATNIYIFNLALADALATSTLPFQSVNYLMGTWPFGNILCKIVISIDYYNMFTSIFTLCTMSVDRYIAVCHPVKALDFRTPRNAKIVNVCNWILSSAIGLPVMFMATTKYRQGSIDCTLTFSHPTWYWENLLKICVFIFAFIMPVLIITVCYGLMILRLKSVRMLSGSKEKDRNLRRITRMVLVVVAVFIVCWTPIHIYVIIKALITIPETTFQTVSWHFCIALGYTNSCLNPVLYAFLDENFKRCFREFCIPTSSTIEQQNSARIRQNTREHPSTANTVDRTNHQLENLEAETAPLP
Chain of UniProt P04035 (whole entry, looked up): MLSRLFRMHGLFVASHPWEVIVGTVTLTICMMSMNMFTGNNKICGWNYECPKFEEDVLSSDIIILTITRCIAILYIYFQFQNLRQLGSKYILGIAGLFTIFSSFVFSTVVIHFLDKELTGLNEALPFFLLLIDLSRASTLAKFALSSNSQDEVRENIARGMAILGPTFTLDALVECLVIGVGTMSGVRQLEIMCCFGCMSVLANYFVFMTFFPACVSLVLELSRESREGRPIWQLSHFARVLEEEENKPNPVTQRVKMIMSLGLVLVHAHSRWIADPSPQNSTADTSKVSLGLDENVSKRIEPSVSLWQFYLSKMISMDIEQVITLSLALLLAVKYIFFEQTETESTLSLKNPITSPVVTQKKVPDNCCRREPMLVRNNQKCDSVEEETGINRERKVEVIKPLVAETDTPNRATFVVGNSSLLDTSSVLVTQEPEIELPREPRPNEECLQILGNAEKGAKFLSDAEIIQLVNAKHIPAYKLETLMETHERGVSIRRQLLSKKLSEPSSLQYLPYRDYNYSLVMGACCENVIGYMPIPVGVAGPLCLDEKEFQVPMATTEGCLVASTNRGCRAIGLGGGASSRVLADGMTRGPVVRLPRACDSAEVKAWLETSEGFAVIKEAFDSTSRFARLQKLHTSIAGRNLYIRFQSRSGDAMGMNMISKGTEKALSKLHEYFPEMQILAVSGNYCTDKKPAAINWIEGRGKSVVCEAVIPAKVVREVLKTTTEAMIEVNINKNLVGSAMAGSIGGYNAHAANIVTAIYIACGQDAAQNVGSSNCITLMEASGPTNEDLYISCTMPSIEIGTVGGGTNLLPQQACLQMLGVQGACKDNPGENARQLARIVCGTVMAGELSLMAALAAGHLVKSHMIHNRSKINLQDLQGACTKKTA
Chain of UniProt P08684 (whole entry, looked up): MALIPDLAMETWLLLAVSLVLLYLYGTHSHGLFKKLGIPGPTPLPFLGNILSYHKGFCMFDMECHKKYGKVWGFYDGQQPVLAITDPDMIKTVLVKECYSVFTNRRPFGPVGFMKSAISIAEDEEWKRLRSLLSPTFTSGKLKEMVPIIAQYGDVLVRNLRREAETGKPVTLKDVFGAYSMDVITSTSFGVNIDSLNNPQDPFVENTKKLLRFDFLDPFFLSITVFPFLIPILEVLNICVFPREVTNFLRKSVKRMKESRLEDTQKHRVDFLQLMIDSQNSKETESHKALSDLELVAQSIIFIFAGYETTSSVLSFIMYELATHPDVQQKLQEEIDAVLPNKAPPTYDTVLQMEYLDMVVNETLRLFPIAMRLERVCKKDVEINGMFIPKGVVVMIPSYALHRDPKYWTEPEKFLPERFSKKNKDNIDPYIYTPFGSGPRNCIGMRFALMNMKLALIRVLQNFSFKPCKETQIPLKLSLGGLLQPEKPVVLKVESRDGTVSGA
Chain of UniProt Q9P0L9 (whole entry, unmodified, looked up): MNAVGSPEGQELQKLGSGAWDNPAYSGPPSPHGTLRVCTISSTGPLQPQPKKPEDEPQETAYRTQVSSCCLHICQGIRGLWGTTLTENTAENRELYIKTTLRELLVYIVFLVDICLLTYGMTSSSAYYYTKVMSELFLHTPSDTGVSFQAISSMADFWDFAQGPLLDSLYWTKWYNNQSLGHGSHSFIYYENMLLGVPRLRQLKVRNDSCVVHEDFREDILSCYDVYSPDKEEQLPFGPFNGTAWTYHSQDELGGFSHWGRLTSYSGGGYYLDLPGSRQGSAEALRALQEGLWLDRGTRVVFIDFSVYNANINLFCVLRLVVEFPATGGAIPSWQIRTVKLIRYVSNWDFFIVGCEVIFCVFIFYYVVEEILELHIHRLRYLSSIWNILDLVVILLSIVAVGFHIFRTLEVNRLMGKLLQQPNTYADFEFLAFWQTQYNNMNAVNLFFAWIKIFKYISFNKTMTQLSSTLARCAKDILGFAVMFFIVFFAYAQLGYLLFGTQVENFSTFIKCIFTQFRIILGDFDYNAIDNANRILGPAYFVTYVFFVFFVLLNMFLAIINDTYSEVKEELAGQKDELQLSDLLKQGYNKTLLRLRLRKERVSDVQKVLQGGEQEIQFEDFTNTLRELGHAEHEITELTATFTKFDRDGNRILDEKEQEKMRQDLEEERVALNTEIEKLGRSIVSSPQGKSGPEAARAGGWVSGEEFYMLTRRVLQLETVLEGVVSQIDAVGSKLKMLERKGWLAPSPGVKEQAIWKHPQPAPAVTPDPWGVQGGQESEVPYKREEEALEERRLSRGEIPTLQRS
Chain of UniProt O15244 (whole entry, looked up): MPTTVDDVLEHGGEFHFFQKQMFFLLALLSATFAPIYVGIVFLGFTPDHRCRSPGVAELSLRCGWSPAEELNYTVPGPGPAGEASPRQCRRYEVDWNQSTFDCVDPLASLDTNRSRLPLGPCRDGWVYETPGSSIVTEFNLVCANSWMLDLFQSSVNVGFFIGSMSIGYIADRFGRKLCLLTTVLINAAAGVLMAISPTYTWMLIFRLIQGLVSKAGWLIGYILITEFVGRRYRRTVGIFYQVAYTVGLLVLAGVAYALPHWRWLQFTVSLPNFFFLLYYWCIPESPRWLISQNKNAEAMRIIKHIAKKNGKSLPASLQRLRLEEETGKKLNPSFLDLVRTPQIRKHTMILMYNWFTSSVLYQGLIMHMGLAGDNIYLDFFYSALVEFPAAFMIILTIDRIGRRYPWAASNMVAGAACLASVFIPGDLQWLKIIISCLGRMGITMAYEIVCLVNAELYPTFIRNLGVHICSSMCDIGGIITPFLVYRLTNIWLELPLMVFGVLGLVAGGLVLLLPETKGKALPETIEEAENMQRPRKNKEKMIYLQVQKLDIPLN

Structure (SMILES) | target | test | test system | setting | quantity | result
N#Cc1ccc(Nc2nc(N)cc(Oc3c(F)cc(-c4ccc(C#N)cc4)cc3F)n2)cc1 | Cytochrome P450 3A4 (CYP3A4, Homo sapiens, UniProt P08684) | – | human liver microsomes | with: testosterone | IC50 | > 50000 nM
CC[C@H](C)[C@H](NC(=O)[C@H](Cc1ccccc1)NC(=O)[C@@H]1CCCN1C(=O)CNC(=O)[C@H](Cc1ccc(O)cc1)NC(=O)[C@H](CCSC)NC(=O)[C@@H](N)CCCNC(=N)N)C(=O)N[C@@H](Cc1c[nH]cn1)C(=O)N[C@@H](Cc1ccccc1)C(=O)O | HLA class I histocompatibility antigen, A alpha chain allele A*02:01 | binding | – | – | IC50 | 1890 nM
Nc1nc2c(ncn2[C@@H]2O[C@H](COP(=O)(O)OP(O)(O)=S)[C@@H](O)[C@H]2O)c(=O)[nH]1 | OPRM1/GNAI1 (Homo sapiens, UniProt P35372+P63096) | MOR-Gi coupling | HEK293F | ratio 1:4 | IC50 | 49.5 nM and 44 nM and 52.4 nM
COc1cc(Nc2ncc(F)c(Nc3ccc4c(n3)NC(=O)C(C)(C)O4)n2)cc(OC)c1OC | HMGCR (Homo sapiens, UniProt P04035) | – | – | – | IC50 | > 10000 nM
CSCC[C@H](NC(=O)[C@@H](NC(=O)[C@@H]1CCCN1C(=O)[C@@H]1CCCN1C(=O)[C@H](CC(=O)O)NC(=O)[C@@H](NC(=O)[C@@H](N)CCCCN)C(C)C)C(C)C)C(=O)N[C@@H](CCC(=O)O)C(=O)N[C@@H](Cc1ccccc1)C(=O)O | HLA class I histocompatibility antigen, A alpha chain allele A*02:01 | binding | – | – | IC50 | 34400 nM
CCCNCC(O)COc1ccccc1C(=O)CCc1ccccc1 (stereo not drawn) | PKD2L1 (Homo sapiens, UniProt Q9P0L9, F514A) | ion current | – | – | IC50 | 1000 nM
CNC(C)Cc1ccc2c(c1)OCO2 (stereo not drawn) | SLC22A2 (Homo sapiens, UniProt O15244) | – | – | – | IC50 | 10200 ± 4600 nM
CC[C@H](C)[C@H](NC(=O)[C@@H](N)CCSC)C(=O)N[C@@H](Cc1ccccc1)C(=O)N[C@@H](CC(=O)O)C(=O)N[C@@H](CCCCN)C(=O)N1CCC[C@H]1C(=O)N[C@H](C(=O)N[C@@H](Cc1ccc(O)cc1)C(=O)N[C@@H](Cc1ccccc1)C(=O)O)C(C)C | HLA class I histocompatibility antigen, A alpha chain allele A*02:01 | binding | – | – | IC50 | 398 nM
COc1ccc2c3c1OC1C(NC(=O)c4cccc(I)c4)CCC4C(C2)N(CC2CC2)CCC341 (stereo not drawn) | Oprm1 (Mus musculus, UniProt P42866) | – | – | – | EC50 | 62.4 ± 31.8 nM

For quick reference, copied from above:
Structure (SMILES) | target | test | test system | setting | quantity | result
CC[C@H](C)[C@H](NC(=O)[C@@H](N)CCSC)C(=O)N[C@@H](Cc1ccccc1)C(=O)N[C@@H](CC(=O)O)C(=O)N[C@@H](CCCCN)C(=O)N1CCC[C@H]1C(=O)N[C@H](C(=O)N[C@@H](Cc1ccc(O)cc1)C(=O)N[C@@H](Cc1ccccc1)C(=O)O)C(C)C | HLA class I histocompatibility antigen, A alpha chain allele A*02:01 | binding | – | – | IC50 | 398 nM
